Experimental data collected from several papers.
A part holds a random share of what one study measured. Substitutions count along the parent as printed.

Study 1
Target: CCND1, cyclin fold, Cln2 fusion (human)
Method: yeast growth competition, sequencing
Medium: yeast
Setting: weak parent motif
Reference: not given
Reading: higher = stronger binding
Starting sequence: WEE1 docking peptide (human); HKTFRKLRLFDTP
Variant | normalised enrichment score
K6F | -0.971
K2Y | 0.0817
P13K | 0.264
D11T | 0.0583
T3C | -0.0427
R8M | 0.458
R5L | 0.467
F10I | -0.161
D11W | 0.183
L7M | -0.776
R5D | 0.406

Study 2
Target: Histone acetyltransferase KAT6A, both winged helices, GST fusion (KAT6A, Homo sapiens, UniProt Q92794, residues 1-181)
Method: protein binding microarray
Molecule type: double-stranded DNA, one strand shown
Medium: in vitro
Tested at: not given
Setting: 8-mer, flanks averaged, mean of 2 arrays, mostly near background
Reference: not given
Reading: higher = stronger binding
Target sequence (chain): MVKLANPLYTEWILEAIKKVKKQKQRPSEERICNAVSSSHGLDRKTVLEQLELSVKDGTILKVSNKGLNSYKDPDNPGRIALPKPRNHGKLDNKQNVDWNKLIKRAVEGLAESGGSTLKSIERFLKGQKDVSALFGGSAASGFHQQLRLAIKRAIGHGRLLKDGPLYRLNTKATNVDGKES
Strand | E-score
AGAGCAGC | -0.0715
AGTTACGA | -0.105
CATAAAGA | -0.0644
AGGCCCCT | -0.192
GACCCATA | -0.126
AGGCGATC | -0.0383
AGCGCGCA | 0.399
CGCCTCGA | 0.151
AACATGCG | 0.18
ACCTGGAA | -0.112
ACGCGTCA | 0.302
AGGCCGTA | 0.206
CCCGCCTA | 0.171

Study 3
Target: Ras GTPase-activating protein-binding protein 1, C-terminal RGG region (G3BP1, Homo sapiens, UniProt Q13283)
Chain of UniProt Q13283 (whole entry, looked up): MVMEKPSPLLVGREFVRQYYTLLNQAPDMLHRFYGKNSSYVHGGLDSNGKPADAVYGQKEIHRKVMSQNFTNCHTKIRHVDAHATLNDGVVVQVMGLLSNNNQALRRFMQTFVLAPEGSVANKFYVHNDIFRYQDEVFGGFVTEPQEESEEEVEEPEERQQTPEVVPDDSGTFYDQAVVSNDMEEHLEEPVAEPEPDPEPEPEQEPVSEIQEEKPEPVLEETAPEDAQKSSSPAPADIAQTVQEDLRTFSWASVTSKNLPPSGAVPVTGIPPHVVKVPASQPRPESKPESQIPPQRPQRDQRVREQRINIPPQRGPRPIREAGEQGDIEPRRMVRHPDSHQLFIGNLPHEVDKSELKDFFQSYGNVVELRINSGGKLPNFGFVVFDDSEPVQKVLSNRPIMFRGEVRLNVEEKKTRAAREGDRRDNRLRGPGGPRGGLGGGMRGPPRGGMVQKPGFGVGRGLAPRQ
Method: RNA Bind-n-Seq
Molecule type: RNA
Medium: in vitro
Tested at: 1 µM
Setting: whole 134-nt RNA, ends assumed
With: 150 mM KCl
Reference: input library
Reading: higher = stronger binding
Strand | log2 enrichment
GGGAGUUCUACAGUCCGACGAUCCACAGACAACACGCACCCACACAGAGACAGAGGGAAGGGGUUGGGAUGGGGACAGGGUGCACAGCAGGGCGGGGUAGGACCCCAGCCCCUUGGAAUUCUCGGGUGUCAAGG | -0.202
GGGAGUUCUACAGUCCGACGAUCGUCCUGUGCUACACAUCGUAUGUACCGAAUCGGCCCCCGGGCCCCCGGGGCCCCCGGGGAAAGUAUUAUGUUACGCCGUUCGGAUCUGCAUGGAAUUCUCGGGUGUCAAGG | -1.84
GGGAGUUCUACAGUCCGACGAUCUCAAGUCCUGUGCUACACAUCGUAUGUACCGAAUCGGAAAAAAAGGUGGAAAGGAAAGUAUUAUGUUACGCCGUUCGGAUCUGCACUUCCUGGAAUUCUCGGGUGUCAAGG | -1.41
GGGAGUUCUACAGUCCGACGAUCACCAUGCAGGUGGGCAUCUUUGGGAAGUGGGGCAAGGGGGGGAUAGGGAGGGGGGUAACACUUUGGGAACUGGUGGUCCCAGGUCGUUUCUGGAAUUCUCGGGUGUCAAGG | 2.02
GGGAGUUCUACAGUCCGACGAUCGUCCUGUGCUACACAUCGUAUGUACCGAAUCGGGGAAAAAGGGGAAAGGGGAAAGGGGAAAGUAUUAUGUUACGCCGUUCGGAUCUGCACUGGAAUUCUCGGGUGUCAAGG | 3.18
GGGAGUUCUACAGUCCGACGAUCUCCUGUGCUACACAUCGUAUGUACCGAAUCGGGGCCCCCGGGCCCCCGGGGCCCCCGGGAAAGUAUUAUGUUACGCCGUUCGGAUCUGCAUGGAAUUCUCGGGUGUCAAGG | -1.95
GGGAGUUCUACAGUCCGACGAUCGCAGGAAGUAAAAACAAAUGGAAAUGCUUCGGAUAGUGGCAGGGGUGGGGGUUGCUAAGGAAAGGGUGGGAUGAAAGUGGGUAAAGAGUUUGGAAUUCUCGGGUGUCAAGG | 1.82
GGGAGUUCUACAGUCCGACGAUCAGUCCUGUGCUACACAUCGUAUGUACCGAAUCGGGGUUUGGGGUUUGGGGUUUGGGGAAAGUAUUAUGUUACGCCGUUCGGAUCUGCACUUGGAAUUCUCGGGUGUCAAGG | 3.7
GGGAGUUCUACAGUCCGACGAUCUGUGCUACACAUCGUAUGUACCGAAUCGGGGAAAAAAAGGGGUUUUUUUGGGGAAAAAGGGGAAAGUAUUAUGUUACGCCGUUCGGAUCUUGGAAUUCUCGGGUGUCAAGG | 0.356
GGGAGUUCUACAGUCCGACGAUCUAACUUUAGAGGAGGAUCUGAUGGAUAUGGCAGUGGACGUGGAUUUGGGGAUGGCUAUUAUGGGUAUGGAGGAGGACCUGGAGGUGGCAAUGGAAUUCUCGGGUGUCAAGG | -0.89
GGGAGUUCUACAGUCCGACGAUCUCCUCAAGUCCUGUGCUACACAUCGUAUGUACCGAAUCGGGCGGGCGGGCGGAAAGUAUUAUGUUACGCCGUUCGGAUCUGCACUUCCAGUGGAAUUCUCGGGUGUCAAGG | 1.98
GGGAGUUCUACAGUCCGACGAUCGUCCUGUGCUACACAUCGUAUGUACCGAAUCGGGUUUUUGGGGUUUUUGGUUUUUGGGGAAAGUAUUAUGUUACGCCGUUCGGAUCUGCAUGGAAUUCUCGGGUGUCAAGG | -0.785
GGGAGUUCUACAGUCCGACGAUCUGGGAGGUGGAUUUUGUUUAUUUUUUUAGCUCAUUUCCAGGGGUGGGAAUUUUUUUUUAAUAUGUGUCAUGUAUAAAGUUGUUUUUGAAAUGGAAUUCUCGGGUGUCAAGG | 4.27
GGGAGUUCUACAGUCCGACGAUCUCCUGUGCUACACAUCGUAUGUACCGAAUCGGGGUUUUUGGUUUUUGGGGUUUUUGGGGAAAGUAUUAUGUUACGCCGUUCGGAUCUGCAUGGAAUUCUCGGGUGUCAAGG | -0.35

Single results of other studies
Molecule | target | assay | system | conditions | scale | quantity | result
PhoQ, residues 284 288 289 292 302 303 AMDMFI | PhoP, residues 12 14 15 18 19 TQAIL (Escherichia coli, UniProt P23836) | Sort-seq, refers to: YFP reporter | E. coli | PhoQ-PhoP variant library, with: 10 µM Mg2+ | reference: high Mg2+ state, higher = stronger signaling | fold induction | 0.786

Excerpt of the above (study 3):
Strand | log2 enrichment
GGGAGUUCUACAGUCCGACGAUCGUCCUGUGCUACACAUCGUAUGUACCGAAUCGGCCCCCGGGCCCCCGGGGCCCCCGGGGAAAGUAUUAUGUUACGCCGUUCGGAUCUGCAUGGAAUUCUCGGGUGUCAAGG | -1.84
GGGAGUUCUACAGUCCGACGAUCUCAAGUCCUGUGCUACACAUCGUAUGUACCGAAUCGGAAAAAAAGGUGGAAAGGAAAGUAUUAUGUUACGCCGUUCGGAUCUGCACUUCCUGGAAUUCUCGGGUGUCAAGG | -1.41
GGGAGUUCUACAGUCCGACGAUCACCAUGCAGGUGGGCAUCUUUGGGAAGUGGGGCAAGGGGGGGAUAGGGAGGGGGGUAACACUUUGGGAACUGGUGGUCCCAGGUCGUUUCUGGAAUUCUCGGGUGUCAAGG | 2.02
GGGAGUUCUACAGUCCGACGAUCGUCCUGUGCUACACAUCGUAUGUACCGAAUCGGGGAAAAAGGGGAAAGGGGAAAGGGGAAAGUAUUAUGUUACGCCGUUCGGAUCUGCACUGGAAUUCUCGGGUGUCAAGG | 3.18
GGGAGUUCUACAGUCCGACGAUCUCCUGUGCUACACAUCGUAUGUACCGAAUCGGGGCCCCCGGGCCCCCGGGGCCCCCGGGAAAGUAUUAUGUUACGCCGUUCGGAUCUGCAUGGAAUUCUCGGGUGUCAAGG | -1.95
